Measurements collected from several papers.
Every numbered part comes from another study and shows a few of its results, in no order. Substitutions count along the parent as printed.

Series 1 — target: CEP164, C-terminal peptide (human); technique: DHFR complementation, deep sequencing; matrix: yeast; baseline: wild type; reading: higher = weaker binding
Notes: single substitutions, model-inferred values
Starting sequence: PDZK1, PDZ domain 2 (human); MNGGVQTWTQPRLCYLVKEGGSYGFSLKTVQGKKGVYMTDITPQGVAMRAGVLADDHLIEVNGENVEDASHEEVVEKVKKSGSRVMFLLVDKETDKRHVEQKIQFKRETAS; partner HNRVKVYRF
| Change | binding free energy change [kcal/mol] |
| --- | --- |
| C14I | -0.105 |
| D68S | 0.107 |
| E72C | 0.634 |
| M1I | -0.028 |
| T42R | 0.195 |
| K96N | -0.0509 |
| I59W | 0.551 |
| K28E | 0.00718 |
| F25Y | 1.36 |

Series 2 — target: CCND1, cyclin fold, Cln2 fusion (human); technique: yeast growth competition, sequencing; matrix: yeast; notes: weak parent motif; baseline: not given; reading: higher = stronger binding
Starting sequence: GMNC docking peptide (human); KNAKRNLSSEFAN
| Change | normalised enrichment score |
| --- | --- |
| KNAKYNLSSEFAN [R5Y] | 0.115 |
| KNAKMNLSSEFAN [R5M] | 0.329 |
| KNAKRNLSCEFAN [S9C] | 0.403 |
| KNAKRFLSSEFAN [N6F] | -0.0987 |
| KNAKRNHSSEFAN [L7H] | 0.0162 |
| KNAKRNLSSTFAN [E10T] | 0.0179 |
| KNAKRSLSSEFAN [N6S] | 0.494 |
| KNAKRNLSKEFAN [S9K] | 0.674 |
| KFAKRNLSSEFAN [N2F] | 0.355 |
| KNAKRNLSSWFAN [E10W] | 0.977 |
| KNAKRNLSSAFAN [E10A] | -0.0913 |
| KNAKRNLSSEFKN [A12K] | 0.342 |
| KEAKRNLSSEFAN [N2E] | 0.638 |
| KNAKRRLSSEFAN [N6R] | 0.377 |
| KNAKRNLDSEFAN [S8D] | 0.697 |
| KNHKRNLSSEFAN [A3H] | 0.743 |
| KNAKRNLSSCFAN [E10C] | 0.0722 |

Series 3 — technique: RNA Bind-n-Seq; molecule type: RNA; matrix: in vitro; tested at: 365 nM; baseline: no-protein control; reading: higher = stronger binding
Target: RNA binding protein fox-1 homolog 2, RRM domain, GST-SBP tag (RBFOX2, Homo sapiens, UniProt O43251-10, residues 100-194)
Notes: natural RNA segment, single round, ends assumed
Constant ends, left off below: GGGAGUUCUACAGUCCGACGAUC … UGGAAUUCUCGGGUGCCAA
Residues (chain): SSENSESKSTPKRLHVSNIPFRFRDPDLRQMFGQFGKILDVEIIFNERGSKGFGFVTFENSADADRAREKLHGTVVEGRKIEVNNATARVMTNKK
| Sequence | RBNS enrichment (R) |
| --- | --- |
| CUCCUCACUUGCUGCAGUGUCAUAGCAAUAAAAUGUGAUUCUUGGGGUCCCCCCAGGGAGCUGCCCAUGGCUUUAUUUAUGAACCUGGUUUUCGGGAGUCAGGGGAGGAG | 0.418 |
| GUUAUCAAAAAUUUCAUGGAAGGACCACAUUUUAUAUUUAUUGUGCUUCGAGUGACUGACCCCAGUGGUAUCCUGUGACAUGUAACAGCCAGGAGUGUUAAGCGUUCAGU | 0.829 |
| CAUUUUCAAAUAUCUUUUCAACUGUAAUGACUAUGACAGGAACUGAUUCAACUCUCAAUUUUCUUUAUGCAUCAUGGUAAAGCAUUGCAGCAGUGUUGUUUUGUUUGAAG | 0.985 |
| AAAGCUACAAAUAACACUUACUUUGAAUCCUGCUGUCAAAUGUCUGCAUCAAGAUAGCACCCCUUUGUGGGAGGCCCUGAGUAUCUUCUCUUCCUCUACUGCCUAACUGU | 0.885 |
| CCCCAUGCAGUGUCAACUGAUGUUUAAGCUACAGAGCAUUGUUGUAGUGGUGAGGGCCCUCUGUUGCAGGGGCAUGGGGAAAUGCAUAUAUUAAUCAGGGGCUGGAGGAG | 10.9 |
| UGAUCCGGGCCACUAGAGAUUAGCUUCCAUUGCCUGAGGCAGAGGGAGGACACAGGUCUUCCUGGAGUCUCUCUGCUGCUUUCCCCAGCCUCCCAAGCAACACACUAUGG | 0.315 |
| AAGAAGCCUUCACUCACCUUCACUGCUGCUGUUGCAACUCGGCUGUUCUGGACUCUGAUGUGUGUGGAGGGAUGGGGAAUAGAACAUUGACUGUGUUGAUUACCUUCACU | 1.53 |
| GAAGGAUUGUAAUGUCAGCAGGUGUUGCCUGAAAGAGUUCUGUGUAGACACUUCUGGGACGUUGCUGCGCAUGCAGCAUCGGAAGGCAGCACAGGCGCUGGCAGUGGAUA | 0.258 |
| CCUAUCUAGCCUUCAGAUGUCCUCCACUGCAGGUCACCCCAGGAGAUAGCAUCAAUAAUAUAGUCUCAGUCUUGUUUAUAAAGAUUCUAAGUUGUCUAGUAAAUAAGUCU | 0.792 |
| AGCUCACCCCUUUGGUGACUCAGAGUCCUUCUCAGAAGGAAACCCUGACUCCUGGGCCAUUUCCUAAUGGUACUGUAAGCCAAGUGGCUCGGCUUCUGCCUCUGUUUCCA | 0.21 |
| UUGUAUAAAAAUUUCUCAUCUUUUCAGACUUUUUUGUAAACCGCCCCCGAGUUGUGAAAGCUGCGACGUAGCAGUGACCUCAGCAGUCCCUAUGUUUUCCCCCUUUGAAA | 0.746 |
| GGUGGGUCUCCACUGCGGGGCCAGGGCCACGCUCACCCCUCUCGCGGCCCCUCCUCUGCUUCCCCCUGAACCCACCCCCCACGGAAACCAGCCCUGCGGGCUAAGCAGGU | 0.395 |

Series 4 — technique: DHFR PCA, deep sequencing; matrix: yeast; together with: (+)-ABA 58 µM; baseline: wild-type fitted maximum; reading: higher = stronger binding
Target: ABI1, truncated, D143A, DHFR fusion (Arabidopsis thaliana)
Notes: methotrexate growth selection, single substitutions
Starting sequence: PYL1, truncated, DHFR fusion (Arabidopsis thaliana); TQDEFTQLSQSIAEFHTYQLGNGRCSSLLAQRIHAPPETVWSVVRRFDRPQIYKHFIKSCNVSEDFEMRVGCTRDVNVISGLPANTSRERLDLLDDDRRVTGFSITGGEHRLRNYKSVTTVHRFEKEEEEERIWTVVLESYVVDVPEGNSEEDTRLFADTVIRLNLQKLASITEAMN; partner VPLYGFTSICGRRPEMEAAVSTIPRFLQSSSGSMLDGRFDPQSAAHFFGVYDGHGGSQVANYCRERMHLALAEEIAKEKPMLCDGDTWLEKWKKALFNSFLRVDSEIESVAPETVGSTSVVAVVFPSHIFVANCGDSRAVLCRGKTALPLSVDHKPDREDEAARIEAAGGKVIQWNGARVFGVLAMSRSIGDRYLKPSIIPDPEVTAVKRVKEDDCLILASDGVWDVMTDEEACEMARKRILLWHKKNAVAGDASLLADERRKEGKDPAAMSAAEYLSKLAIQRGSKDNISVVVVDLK
| Change | relative binding score |
| --- | --- |
| D3S | 84.7% |
| T120Y | -9.32% |
| A84I | 12.2% |
| T39Q | 87.5% |
| E14L | 66.5% |
| T154K | 16.2% |
| P36G | 66.8% |
| D92K | -5.49% |
| E152D | 89% |
| V118I | 87.8% |
| E89M | -2.15% |
| R74W | 0.671% |
| H34R | 77.3% |
| L82P | 53.2% |
| E14I | 65% |

Series 5 — technique: RNA Bind-n-Seq; molecule type: RNA; matrix: in vitro; tested at: not given; baseline: input RNA pool; reading: higher = stronger binding
Target: RING finger protein unkempt homolog, zinc fingers 1-6, GST-SBP tag (UNK, Homo sapiens, UniProt Q9C0B0, residues 30-357)
Sequence of UniProt Q9C0B0 (30-357, looked up): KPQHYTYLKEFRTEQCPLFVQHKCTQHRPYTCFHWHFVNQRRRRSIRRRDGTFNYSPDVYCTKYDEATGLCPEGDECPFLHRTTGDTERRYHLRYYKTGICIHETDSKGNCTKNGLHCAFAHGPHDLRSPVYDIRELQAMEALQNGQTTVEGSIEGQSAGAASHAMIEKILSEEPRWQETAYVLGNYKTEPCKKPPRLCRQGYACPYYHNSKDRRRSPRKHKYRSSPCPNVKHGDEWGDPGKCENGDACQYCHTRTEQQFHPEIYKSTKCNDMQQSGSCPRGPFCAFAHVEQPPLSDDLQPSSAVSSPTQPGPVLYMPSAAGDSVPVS
Notes: RNA with constant flanks, human and mouse sites, ends assumed
Constant ends, left off below: GGGAGUUCUACAGUCCGACGAUC … CAACAGAGGAUUGAGCAUCA
| Sequence | bound/input enrichment [ratio] |
| --- | --- |
| UUUGUACCAGUUAUCAAACUCUGUUUUGAUGGAAUAGAGAUUGAUAUUUUGUUUGCAAGAUUAGCACUGCAGACUAUUCCAGAAGAUUUGGACCUACGAGAUGACAGUCUGCUUAAAAAC | 0.181 |
| UCUGAAAUCAGCAGAGGCUGUUUUGCCUAACAGAGGAAAAGUGGUAAAAGCCAGAGCCUCUCCUUUAUGGAGACAGCAUUGUUCCCUUCCUGGUCAGGCAGGAGAAAGAAGCUCUUCGCU | 0.117 |
| GAUAAGAGCAUGCAGGACCGAUUGCGAUUAGGCCACUUUACUACUGUCCGGCAUGGAGCCUCGUUUACUGAGCAGUGGACAGAUGGUUAUGCUUUCCAAAACCUCAUCAAGCAACAGGAA | 0.458 |
| CAGGUAUUUAUAGUGAAUCAUACUGUAAAAAAGAGGUAGCAUGAUAUGCUGGAAAGCAUAUUAGACUAGGAGUCAAGACCUGGUUUCUAGUCUUGGUUUUGCCAUUAAUGUGCUGCAUGA | 0.208 |
| GAAGUGGAGCCCAAAUUAGCCGCCUGGAUCCAAAAACUUAAUAGCUUUGGCUUAGAUGCCACAGGAACUUUCUUUUCUCGUUAUGGAGCAUCUCUUAAACUGCUUGAUUUUAGUAUCAUG | 3.72 |
| CGCAGAAGAUUAAAGGGUGAAAAUGGGAUGGAGGAUUGUGUCAUGGCCCUAGAAACCUUGUUUAGUGUUCUGCUUUCUCUUUGCAGACUUAUGGCUCCCUACACACCUUUUCUCACUGAA | 0.166 |
| CCUCUGAGGAAGAAUGCAGGUGCCUCCAGCAGUCUGGUGCUGCACUCCAGCCCUCUUAAUGUCCUCAUGGGAUCUUCAGGGAAAGAAGAGAAUGAAAGCCAUGAGCCGUCAGCUGAGUCU | 0.128 |
| UUUGAUGUAAGAAUUGAACGGGACGCACAAGAGAUGGCUGAUAGUUUGGGAGUUAGAAUCUUUAGUGCAGAAAUUAUUUAUCACUUAUUUGAUGCCUUUACAAAAUACAGACAGGACUAC | 3.78 |
| ACAGCUAGUGGCUGCUUGGUUGAAAGGAGGCAUUGACUUCAGCAACACAAUUAUGUUUUUAUUAGGAAUGUGCCAUACCGAAUCCGUGUGCGGCUGUCCAGAAAACGUAAUGAGGAUGAA | 0.15 |
| CCUCUGGAAGCCUUGCGCAGAGCUUACUUUGUAAUUGUUGGAGAAUAACUGCUGAAUUUUUAGCUGUUUUGAGUUGAUUCGCACCACUGCACCACAACUCAAUAUGAAAACUAUUUAACU | 0.759 |
| AGUUUAUCUGGAUGUUAUCAGAUCACAGACCAUGGUCUCAGGGUUUUGACUCUGGGAGGAGGGCUGCCUUAUUUGGAGCACCUUAAUCUCUCUGGUUGUCUUACUAUAACUGGUGCAGGC | 0.12 |

Single results of other studies
| Molecule | target | test | test system | conditions | how to read | measurement | result |
| --- | --- | --- | --- | --- | --- | --- | --- |
| PhoQ, residues 284 288 289 292 302 303 WSHMKI | PhoP, residues 12 14 15 18 19 VHSCL (Escherichia coli, UniProt P23836) | Sort-seq, item: YFP reporter | E. coli | PhoQ-PhoP variant library, together with: 10 µM Mg2+ | baseline: high Mg2+ state, higher = stronger signaling | fold induction | 10.3 |

A few entries again (series 5):
| Sequence | bound/input enrichment [ratio] |
| --- | --- |
| UUUGUACCAGUUAUCAAACUCUGUUUUGAUGGAAUAGAGAUUGAUAUUUUGUUUGCAAGAUUAGCACUGCAGACUAUUCCAGAAGAUUUGGACCUACGAGAUGACAGUCUGCUUAAAAAC | 0.181 |
| GAUAAGAGCAUGCAGGACCGAUUGCGAUUAGGCCACUUUACUACUGUCCGGCAUGGAGCCUCGUUUACUGAGCAGUGGACAGAUGGUUAUGCUUUCCAAAACCUCAUCAAGCAACAGGAA | 0.458 |
| ACAGCUAGUGGCUGCUUGGUUGAAAGGAGGCAUUGACUUCAGCAACACAAUUAUGUUUUUAUUAGGAAUGUGCCAUACCGAAUCCGUGUGCGGCUGUCCAGAAAACGUAAUGAGGAUGAA | 0.15 |
| CAGGUAUUUAUAGUGAAUCAUACUGUAAAAAAGAGGUAGCAUGAUAUGCUGGAAAGCAUAUUAGACUAGGAGUCAAGACCUGGUUUCUAGUCUUGGUUUUGCCAUUAAUGUGCUGCAUGA | 0.208 |
| GAAGUGGAGCCCAAAUUAGCCGCCUGGAUCCAAAAACUUAAUAGCUUUGGCUUAGAUGCCACAGGAACUUUCUUUUCUCGUUAUGGAGCAUCUCUUAAACUGCUUGAUUUUAGUAUCAUG | 3.72 |
| UUUGAUGUAAGAAUUGAACGGGACGCACAAGAGAUGGCUGAUAGUUUGGGAGUUAGAAUCUUUAGUGCAGAAAUUAUUUAUCACUUAUUUGAUGCCUUUACAAAAUACAGACAGGACUAC | 3.78 |
